Results collected from several papers.
Compare with care: the assays were run in different laboratories.
Method: steady-state kinetics
B1: ST3GAL4 (Homo sapiens, UniProt Q11206); chain REDRYIELFYFPIPEKKEPCLQGEAESKASKLFGNYSRDQPIFLRLEDYFWVKTPSAYELPYGTKGSEDLLLRVLAITSSSIPKNIQSLRCRRCVVVGNGHRLRNSSLGDAINKYDVVIRLNNAPVAGYEGDVGSKTTMRLFYPESAHFDPKVENNPDTLLVLVAFKAMDFHWIETILSDKKRVRKGFWKQPPLIWDVNPKQIRILNPFFMEIAADKLLSLPMQQPRKIKQKPTTGLLAITLALHLCDLVHIAGFGYPDAYNKKQTIHYYEQITLKSMAGSGHNVSQEALAIKRMLEMGAIKNLTSF
B2: LYPLA2 (Homo sapiens, UniProt O95372); chain MCGNTMSVPLLTDAATVSGAERETAAVIFLHGLGDTGHSWADALSTIRLPHVKYICPHAPRIPVTLNMKMVMPSWFDLMGLSPDAPEDEAGIKKAAENIKALIEHEMKNGIPANRIVLGGFSQGGALSLYTALTCPHPLAGIVALSCWLPLHRAFPQAANGSAKDLAILQCHGELDPMVPVRFGALTAEKLRSVVTPARVQFKTYPGVMHSSCPQEMAAVKEFLEKLLPPV
B3: asnB E349D (Escherichia coli, UniProt P22106); chain CSIFGVFDIKTDAVELRKKALELSRLMRHRGPDWSGIYASDNAILAHERLSIVDVNAGAQPLYNQQKTHVLAVNGEIYNHQALRAEYGDRYQFQTGSDCEVILALYQEKGPEFLDDLQGMFAFALYDSEKDAYLIGRDHLGIIPLYMGYDEHGQLYVASEMKALVPVCRTIKEFPAGSYLWSQDGEIRSYYHRDWFDYDAVKDNVTDKNELRQALEDSVKSHLMSDVPYGVLLSGGLDSSIISAITKKYAARRVEDQERSEAWWPQLHSFAVGLPGSPDLKAAQEVANHLGTVHHEIHFTVQEGLDAIRDVIYHIETYDVTTIRASTPMYLMSRKIKAMGIKMVLSGDGSDEVFGGYLYFHKAPNAKELHEETVRKLLALHMYDCARANKAMSAWGVEARVPFLDKKFLDVAMRINPQDKMCGNGKMEKHILRECFEAYLPASVAWRQKEQFSDGVGYSWIDTLKEVAAQQVSDQQLETARFRFPYNTPTSKEAYLYREIFEELFPLPSAAECVPGGPSVACSSAKAIEWDEAFKKMDDPSGRAVGVHQSAYK
B4: methanol dehydrogenase partial-apo, europium-bound (Methylacidiphilum fumariolicum, UniProt I0JWN7); chain NDELIKLEKEPGQWVMQNKNYANTRYSELNQINTKNVSRLRLAWSFSTGALRGHEGGPLVVGTTMYVHSAYPNHVYALDLTQKPYAIKWQYTPVQNSQAVAVACCDVVNRGLAYANGKIFMTTLDGQIIALDANTGKELWKMKHADVTKGETITGAPLVVKDKVLVGVSGGEFGVRGRVGAYDINTGNRVWLAYSQGPDEEVLLDSDFNKEFPQHGGPGDGTKTWPGEQWKLGGGTTWGWYSYDPALDLFYYGTSNPGTWNAEQRKGGDNKWSCTIFARRPDTGKARWAYQMTPWDSWDYDGVNEMILPDLTVKGKKTPCLVHFDRNGFGYVLDRRTGQLIEAQPFVYVNWAKEISKENDRPVEIPEKRTKQGVDTKGICPNSMGGKDQQPAAFSPQTGLFYVPTNNMCMNYEGVEATYTAGAPYVGANVLMYSGHEGKDDYYGAFICYDALKGKRVWEIHEHFPVWSGPVVTAGGLAFYGTMDGWFKAVDIKTGKVLWQQKLGSGIIGNPITFLGPDKKQYVAVYSGVGGWFGIAVAQNLPPDDPYAGLGAVGVAYQAGLPKATTVGGELYVFALE
B5: UGT84B1 (Arabidopsis thaliana, UniProt O22182); chain MGSSEGQETHVLMVTLPFQGHINPMLKLAKHLSLSSKNLHINLATIESARDLLSTVEKPRYPVDLVFFSDGLPKEDPKAPETLLKSLNKVGAMNLSKIIEEKRYSCIISSPFTPWVPAVAASHNISCAILWIQACGAYSVYYRYYMKTNSFPDLEDLNQTVELPALPLLEVRDLPSFMLPSGGAHFYNLMAEFADCLRYVKWVLVNSFYELESEIIESMADLKPVIPIGPLVSPFLLGDGEEETLDGKNLDFCKSDDCCMEWLDKQARSSVVYISFGSMLETLENQVETIAKALKNRGLPFLWVIRPKEKAQNVAVLQEMVKEGQGVVLEWSPQEKILSHEAISCFVTHCGWNSTMETVVAGVPVVAYPSWTDQPIDARLLVDVFGIGVRMRNDSVDGELKVEEVERCIEAVTEGPAAVDIRRRAAELKRVARLALAPGGSSTRNLDLFISDITIA
B6: BshA Y95F (Bacillus subtilis, UniProt P42982); chain MRKLKIGITCYPSVGGSGIIATELGKQLAEKGHEIHFITSSIPFRLNTYHPNIHFHEVEVNQYAVFKYPPYDLTLASKIAEVAERENLDIIHAHFALPHAVCAYLAKQMLKRNIGIVTTLHGTDITVLGYDPSLKDLIRFAIESSDRVTAVSSALAAETYDLIKPEKKIETIYNFIDERVYLKKNTAAIKEKHGILPDEKVVIHVSNFRKVKRVQDVIRVFRNIAGKTKAKLLLVGDGPEKSTACELIRKYGLEDQVLMLGNQDRVEDLYSISDLKLLLSEKESFGLVLLEAMACGVPCIGTNIGGIPEVIKNNVSGFLVDVGDVTAATARAMSILEDEQLSNRFTKAAIEMLENEFSSKKIVSQYEQIYADLAEPE
B7: UGT1A9 (Homo sapiens, UniProt O60656); chain GKLLVVPMDGSHWFTMRSVVEKLILRGHEVVVVMPEVSWQLGRSLNCTVKTYSTSYTLEDLDREFKAFAHAQWKAQVRSIYSLLMGSYNDIFDLFFSNCRSLFKDKKLVEYLKESSFDAVFLDPFDNCGLIVAKYFSLPSVVFARGILCHYLEEGAQCPAPLSYVPRILLGFSDAMTFKERVRNHIMHLEEHLLCHRFFKNALEIASEILQTPVTEYDLYSHTSIWLLRTDFVLDYPKPVMPNMIFIGGINCHQGKPLPMEFEAYINASGEHGIVVFSLGSMVSEIPEKKAMAIADALGKIPQTVLWRYTGTRPSNLANNTILVKWLPQNDLLGHPMTRAFITHAGSHGVYESICNGVPMVMMPLFGDQMDNAKRMETKGAGVTLNVLEMTSEDLENALKAVINDKSYKENIMRLSSLHKDRPVEPLDLAVFWVEFVMRHKGAPHLRPAAHDLTWYQYHSLDVIGFLLAVVLTVAFITFKCCAYGYRKCLGKKGRVKKAHKSKTH
B8: iodotyrosine deiodinase (Haliscomenobacter hydrossis, UniProt F4KU78); chain MKQKPAFIPYAGAQFEPEEMLSKSAEYYQFMDHRRTVREFSNRAIPLEVIENIVMTASTAPSGAHKQPWTFVVVSDPQIKAKIRQAAEKEEFESYNGRMSNEWLEDLQPFGTDWHKPFLEIAPYLIVVFRKAYDVLPDGTQRKNYYVQESVGIACGFLLAAIHQAGLVALTHTPSPMNFLQKILQRPENERPFLLVPVGYPAEGAMVPDLQRKDKAAVMVVY
Chain of UniProt Q01740 (whole entry, looked up): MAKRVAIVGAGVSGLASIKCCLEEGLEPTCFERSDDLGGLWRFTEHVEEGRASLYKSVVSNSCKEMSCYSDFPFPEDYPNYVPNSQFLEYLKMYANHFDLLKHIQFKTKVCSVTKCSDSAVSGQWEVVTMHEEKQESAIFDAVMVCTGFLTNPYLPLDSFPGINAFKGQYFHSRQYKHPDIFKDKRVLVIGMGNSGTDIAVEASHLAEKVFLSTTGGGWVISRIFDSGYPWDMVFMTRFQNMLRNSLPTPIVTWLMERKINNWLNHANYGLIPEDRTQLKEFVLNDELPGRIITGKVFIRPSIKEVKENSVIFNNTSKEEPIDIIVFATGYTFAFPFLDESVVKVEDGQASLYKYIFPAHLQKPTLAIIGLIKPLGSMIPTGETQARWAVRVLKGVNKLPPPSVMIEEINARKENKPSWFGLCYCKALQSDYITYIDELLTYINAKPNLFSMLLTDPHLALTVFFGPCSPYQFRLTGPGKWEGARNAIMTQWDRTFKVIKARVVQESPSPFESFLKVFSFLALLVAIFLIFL

B1 (ST3GAL4)
Km (CC(=O)N[C@H]1[C@H](O[C@H]2[C@@H](O)[C@@H](CO)O[C@@H](O[C@H]3[C@H](O)[C@@H](O)[C@H](Oc4ccc([N+](=O)[O-])cc4)O[C@@H]3CO)[C@@H]2O)O[C@H](CO)[C@@H](O)[C@@H]1O[C@@H]1O[C@H](CO)[C@H](O)[C@H](O)[C@H]1O; pH 6, together with: CMP-Neu5Ac 0.5 mM): 650 µM

B2 (LYPLA2)
Km (CN(C)c1ccc(/N=N/c2ccc(C(=O)NCCCn3cc(CCCCCCCCCCCCCCCC(=O)SC[C@H](NC(=O)c4cc5ccc(O)cc5oc4=O)C(=O)N4CCOCC4)nn3)cc2)cc1; pH 7.4, 37 °C): 19.3 µM

B3 (asnB E349D)
Km (NC(=O)CC[C@H](N)C(=O)O; pH 8, 37 °C, 100 mM NaCl, glutaminase site, together with: MgCl2; no ATP): 2700 µM

B4
Km (CO; pH 7.2, 45 °C, together with: 20 µM EuCl3): 0.91 µM

B5 (UGT84B1)
Km (O=C(O)Cc1c[nH]c2ccccc12; pH 7.5, 30 °C, together with: UDP-glucose 4 mM, MgSO4 2.5 mM): 23.1 µM

alanine aminopeptidase (Neisseria meningitidis, UniProt Q9JYV4)
Km (NC(=O)Cc1cc(=O)oc2cc(NC(=O)[C@@H](N)CC3CCCCC3)ccc12; pH 7.5, 37 °C): 122 µM

B6 (BshA Y95F)
Km (O=C(O)C[C@H](O)C(=O)O; pH 7.5, 21 °C, together with: UDP-GlcNAc 0–4 mM): 700 µM

enzyme (Brachypodium distachyon, UniProt I1HY48)
Km (NC(=O)C1=CN([C@@H]2O[C@H](COP(=O)(O)OP(=O)(O)OC[C@H]3O[C@@H](n4cnc5c(N)ncnc54)[C@H](OP(=O)(O)O)[C@@H]3O)[C@@H](O)[C@H]2O)C=CC1; pH 6.25, 23 °C, cofactor varied): 7.2 µM

B7 (UGT1A9)
Km (O=c1cc(-c2cccc(O)c2)oc2cc(O)ccc12; pH 7.4, 37 °C): 29.6 µM

B8 (iodotyrosine deiodinase)
Km (N#Cc1cc(C[C@H](N)C(=O)O)cc(I)c1O; pH 7.4, 25 °C): 74 µM

FMO1 (Homo sapiens, UniProt Q01740)
Km (CCN(CC)CCNC(=O)c1ccc(N)cc1; pH 7.4, 37 °C, together with: NADPH 2 mM): 543 µM

A few entries again:
B1 (ST3GAL4)
Km (CC(=O)N[C@H]1[C@H](O[C@H]2[C@@H](O)[C@@H](CO)O[C@@H](O[C@H]3[C@H](O)[C@@H](O)[C@H](Oc4ccc([N+](=O)[O-])cc4)O[C@@H]3CO)[C@@H]2O)O[C@H](CO)[C@@H](O)[C@@H]1O[C@@H]1O[C@H](CO)[C@H](O)[C@H](O)[C@H]1O; pH 6, together with: CMP-Neu5Ac 0.5 mM): 650 µM
